Measured values from different studies.
Several values in a cell are separate wells, animals, samples, runs or records. Numbers after ± are the reported error.

Compound	assay	system	setting	scale	quantity	result
CC[C@H](C)[C@H](NC(=O)[C@H](Cc1ccccc1)NC(=O)[C@H](CC(=O)O)NC(=O)[C@@H]1CCNC(=O)NCC[C@H](NC(=O)[C@H](CC(C)C)NC(=O)[C@H](CCCNC(=N)N)NC(=O)[C@H](CCSC)NC(=O)[C@H](C)N)C(=O)N[C@@H](CCCCN)C(=O)N[C@@H](Cc2ccccc2)C(=O)N[C@@H](Cc2ccccc2)C(=O)N1)C(=O)N[C@@H](CC(C)C)C(=O)N[C@@H](CCC(N)=O)C(=O)N[C@@H](CCCNC(=N)N)C(=O)N[C@@H](CCCCN)C(=O)N[C@@H](CCCCN)C(=O)O	circular dichroism	20% TFE in PBS	200 µM, pH 7.4, 25 °C	–	helicity	18.9%
C[C@]12CC[C@H](O)CC1CCC1C2[C@H](O)C(=O)[C@]2(C)[C@@H](c3ccc(=O)oc3)CC[C@]12O (stereo partly shown)	sulfation, substrate	pig liver cytosol	pH 7.4	–	CLint	0.26 µL/min/mg
O=C(NCCCCCn1ccc2ccccc21)Oc1ccccc1	–	rat liver S9 fraction	30 min, with: NADPH	–	parent remaining	52 ± 2%
CN[C@](C)(C[18F])C(=O)O	–	mouse, pancreas	30 min, tumour-bearing	–	tracer uptake	54 %ID/g
CC(C)C[C@H](NC(=O)[C@H](CCCCN)NC(=O)[C@H](CCC(=O)O)NC(=O)[C@H](C)NC(=O)[C@@H](NC(=O)[C@H](CCCCN)NC(=O)[C@H](CC(=O)O)NC(=O)[C@H](Cc1ccc(O)cc1)NC(=O)[C@H](Cc1ccccc1)NC(=O)[C@H](C)NC(=O)[C@H](CCCCN)NC(=O)[C@H](CC(C)C)NC(=O)[C@H](Cc1c[nH]c2ccccc12)NC(=O)[C@@H](N)CC(=O)O)C(C)C)C(=O)N[C@@H](CCCCN)C(=O)N[C@@H](CCC(=O)O)C(=O)N[C@@H](C)C(=O)N[C@@H](Cc1ccccc1)C(=O)N1CCC[C@H]1C(=O)N[C@@H](CC(=O)O)C(=O)N[C@@H](Cc1c[nH]c2ccccc12)C(=O)N[C@@H](C)C(=O)N[C@@H](CCCCN)C(=O)N[C@@H](C)C(=O)N[C@@H](C)C(=O)N[C@@H](Cc1ccc(O)cc1)C(=O)N[C@@H](CC(=O)O)C(=O)N[C@@H](CCCCN)C(=O)N[C@@H](C)C(=O)N[C@@H](C)C(=O)N[C@@H](CCC(=O)O)C(=O)N[C@@H](CCCCN)C(=O)N[C@@H](C)C(=O)N[C@@H](CCCCN)C(=O)N[C@@H](CCC(=O)O)C(=O)N[C@@H](C)C(=O)N[C@@H](C)C(=O)O	–	cynomolgus monkey female, plasma	intravenous infusion, 25 mg/kg, day 1, 30 min infusion	–	Tmax	0 h
CCCC(CCC)C(=O)OC1O[C@@H]2O[C@@]3(C)CC[C@H]4[C@H](C)CCC([C@H]1C)[C@@]24OO3 (stereo partly shown)	–	Tg(fli1:EGFP) zebrafish embryos	1.0 µg/mL, up to 48 hpf	–	dead embryos	3 count
CCCCCCCCCCCCCCC(=O)O.O=C1CCCC2C3CCCN4CCCC(CN12)C34 (stereo not shown)	shake-flask	simulated gastric fluid	pH 1.2, 37 °C	–	log octanol-water partition coefficient	-1.12
COc1ccc(C2=Nn3c(NN=C4C(=O)N(C)c5ccc(Br)cc54)nnc3SC2)cc1	–	chick embryo, chorioallantoic membrane	40 µM	–	toxicity	toxic
CC[C@H](C)C(=O)N1CCC(NC(=O)Nc2ccc(OC(F)(F)F)c(F)c2)CC1	–	healthy volunteers, both sexes	oral, 8 mg single dose, fed state	–	participants with any Severe TEAE	0%
[11CH3]n1c(=O)n(CCCO)c(=O)c2c1nc(Oc1cccc(OC(F)(F)F)c1)n2Cc1ccc(Cl)cc1	ex vivo biodistribution	Sprague Dawley rat, thymus	60 min post injection	–	tracer uptake	0.43 ± 0.07 %ID/g
Cc1cccc(-c2cccc(C)n2)n1.[Cl-].[Cl-].[Ru+2].c1ccc(-c2ccccn2)nc1.c1ccc(-c2ccccn2)nc1	–	phosphate buffer with NaCl	pH 7.4, 37 °C, photoactivated, dialysis	–	release from nanoassemblies	65.8%
CC1=CC=c2ccc3c4c2[N]1[Re](=[C]=O)(=[C]=O)(=[C]=O)([C]#[N+]c1ccc(Cl)cc1)[N]4C(C)=CC=3.O=S(=O)([O-])C(F)(F)F	–	PBS	10 µM, air-equilibrated	–	luminescence lifetime	1.3 µs
COC1CC(OC2CCC3(C)C(CCC45OC46CCC(C(C)=O)C6(C)C(OC(C)=O)C(OC(=O)c4ccccc4)C35)C2)OC(C)C1OC1OC(C)C(O)C(OC)C1O (stereo not shown)	–	Caco-2	10 µM	–	efflux ratio	1.4
CCCS(=O)(=O)c1ccc2[nH]c(NC(=O)OC)nc2c1	–	human liver mitochondrial preparation	1 µM, 30 min, 0.5 mg/mL protein	–	percent metabolized	11.1%
COC(=O)C[C@H](NC(=O)[C@H](C)NC(=O)[C@@H](NC(=O)[C@H](CC(=O)OC)NC(=O)[C@@H](NC(=O)c1ccc2ccccc2n1)C(C)C)C(C)C)C(=O)COc1c(F)cccc1F	–	rat pups	1 mg/kg, 1 h	–	body weight	20.4 ± 1.67 g
COc1cc(NC(=O)C(=O)c2c(C)n(Cc3ccc(Cl)cc3)c3ccc(C)cc23)ccn1	–	cynomolgus monkey, female, plasma	oral, 10 mg/kg	–	t1/2	19.4 h and 30.3 h and 19.9 h and 19.7 h and 15.7 h

Compound	assay	system	setting	scale	quantity	result
Cc1nc2ccccc2n1CC(=O)NO	–	Wistar rat, female	oral, 100 mg/kg, 48 h	–	acute toxicity	not toxic
CC[C@H](C)[C@H](NC(=O)CN)C(=O)N[C@@H](CC(C)C)C(=O)N[C@@H](CCCCN)C(=O)N[C@@H](Cc1ccccc1)C(=O)N[C@@H](CC(C)C)C(=O)N[C@@H](CCC(=O)O)C(=O)N[C@@H](CO)C(=O)N[C@@H](C)C(=O)N[C@@H](CCCCN)C(=O)N[C@@H](CCCCN)C(=O)N[C@@H](Cc1c[nH]c2ccccc12)C(=O)N[C@@H](CC(C)C)C(=O)N[C@@H](CCC(=O)O)C(=O)N[C@@H](C)C(=O)N[C@@H](Cc1ccccc1)C(=O)N[C@@H](CC(C)C)C(=O)N[C@@H](C)C(=O)N[C@@H](CCC(=O)O)C(=O)N[C@H](C(=O)N[C@@H](CCSC)C(=O)N[C@@H](CC(N)=O)C(=O)N[C@@H](CO)C(=O)O)[C@@H](C)CC	circular dichroism	phosphate buffer 10 mM	1 to 5 µM, pH 7.5, approximate	–	helicity	46%
COC(=O)C[C@](O)(CCCC(C)(C)OC(C)=O)C(=O)O[C@@H]1C(OC)=C[C@]23CCCN2CCc2cc4c(cc2[C@H]13)OCO4	–	CD1 mouse, pancreas	oral, 1 mg/kg, 24 h, below quantification limit 1.00 ng/mL	–	tissue concentration	not detected
CCN(CC)c1ccc2c(-c3ccccc3C(=O)OCCC[18F])c3ccc(=[N+](CC)CC)cc-3oc2c1	–	rat	dose not given, 60 min post injection	reference: heart over blood	heart to blood ratio	26.4
COc1cc2ncnc(Oc3cccc(N[11C](=O)Nc4cc(C(C)(C)C(F)(F)F)on4)c3)c2cc1OC	–	female Balb/c nude mice, plasma	intravenous, dose not given, 30 min	–	radioactivity	1.5 ± 0.11 %ID/g
CC[C@H](C)[C@H](NC(=O)[C@H](CC(=O)O)NC(=O)[C@H](CO)NC(=O)[C@H](CCC(N)=O)NC(=O)[C@H](C)NC(=O)[C@H](CC(=O)O)NC(=O)[C@H](CCC(=O)O)NC(=O)[C@H](Cc1c[nH]cn1)NC(=O)[C@H](Cc1ccc(O)cc1)NC(=O)[C@H](C)NC(=O)[C@H](CC(=O)O)NC(=O)[C@H](CCC(=O)O)NC(=O)[C@H](Cc1c[nH]cn1)NC(=O)[C@H](Cc1ccc(O)cc1)NC(=O)[C@H](C)NC(=O)[C@H](CC(=O)O)NC(=O)[C@H](CCC(=O)O)NC(=O)[C@H](Cc1c[nH]cn1)NC(=O)[C@H](Cc1ccc(O)cc1)NC(=O)[C@H](C)NC(=O)[C@H](CC(=O)O)NC(=O)[C@H](CCC(=O)O)NC(=O)[C@H](Cc1c[nH]cn1)NC(=O)[C@H](Cc1ccc(O)cc1)NC(=O)[C@H](C)NC(=O)[C@H](CC(=O)O)NC(=O)[C@H](CCC(=O)O)NC(=O)[C@H](Cc1c[nH]cn1)NC(=O)[C@@H](N)Cc1ccc(O)cc1)C(=O)N[C@H](C(=O)N[C@@H](C)C(=O)N[C@@H](Cc1c[nH]cn1)C(=O)N[C@@H](CC(C)C)C(=O)N[C@@H](CC(C)C)C(=O)O)C(C)C	–	mouse SN model, blood	dose not given	–	LY share of white cells	91.2 ± 0.8%
NC(=O)[C@@H](CCCCNC(=O)CNC(=O)CCC(=O)NCCc1c[nH]cn1)NC(=O)[C@@H](Cc1ccc(O)cc1)NC(=O)[C@@H](CCCCNC(=O)CNC(=O)CCC(=O)NCCc1c[nH]cn1)NC(=O)Cc1ccc(CN2CCN(CC(=O)O)CCN(CC(=O)O)CC2)cc1 [fluorine-18 labelled]	–	tumour-bearing nude mice	intravenous, 1 h, TF2 pretargeting	reference: tumour over kidney	tissue ratio	9 ± 4
CCCCCCCC(=O)NCCCC[C@H](NC(=O)[C@H](Cc1ccccc1)NC(=O)[C@@H](CCCNC(=N)N)NC(=O)[C@@H](N)Cc1ccc(O)cc1)C(N)=O	LC-MS/MS	CD-1 mouse, male, plasma	intravenous, 3 mg/kg	–	AUC(0-inf)	1050 ng·h/mL
CC(C)(CCCC/C=C/CCCCCC(C)(C)C(=O)O)C(=O)O	–	mice plasma	–	–	plasma protein binding	> 99.8%
CC[C@H](C)[C@H](NC(=O)[C@H](C)NC(=O)[C@@H](NC(=O)[C@H](CC(=O)O)NC(=O)[C@H](CCCCN)NC(=O)[C@H](CO)NC(=O)[C@@H](NC(=O)[C@H](CC(N)=O)NC(=O)[C@H](C)NC(=O)[C@@H](NC(=O)[C@H](CCC(=O)O)NC(=O)[C@H](CCCCN)NC(=O)[C@@H](NC(=O)[C@@H](NC(=O)[C@H](Cc1c[nH]cn1)NC(=O)[C@H](CCCCN)NC(=O)[C@@H](NC(=O)[C@H](CCCCN)NC(=O)[C@H](CCCCN)NC(=O)[C@@H](NC(=O)[C@H](CC(C)C)NC(=O)[C@H](CCCCN)NC(=O)[C@H](CC(N)=O)NC(=O)[C@H](Cc1ccccc1)NC(=O)[C@H](CCCNC(=N)N)NC(=O)[C@H](CCCCN)NC(=O)[C@H](CCCNC(=N)N)NC(=O)[C@H](Cc1ccccc1)NC(=O)CN)C(C)C)C(C)C)[C@@H](C)O)[C@@H](C)CC)[C@@H](C)O)C(C)C)C(C)C)C(=O)N[C@H](C(=O)N[C@@H](C)C(=O)NCC(=O)N[C@@H](CO)C(=O)NCC(=O)N[C@H](C(=O)N[C@@H](C)C(=O)N[C@H](C(=O)NCC(=O)N[C@@H](C)C(=O)N[C@@H](C)C(=O)N[C@@H](CCSC)C(N)=O)C(C)C)C(C)C)C(C)C	–	human erythrocytes	–	–	minimal haemolytic concentration	> 1020 mg/L
C[C@@H](O)[C@H](NC(=O)[C@H](CCCCN)NC(=O)[C@H](Cc1c[nH]c2ccccc12)NC(=O)CN)C(=O)N[C@@H](CCCNC(=N)N)C(=O)NC(C)(C)C(=O)N[C@@H](CCCNC(=N)N)C(=O)NC(C)(C)C(=O)N[C@H](C(=O)N[C@@H](CO)C(=O)N[C@@H](Cc1c[nH]cn1)C(=O)N[C@@H](Cc1ccc(O)cc1)C(=O)NCC(=O)O)[C@@H](C)O	–	C57BL/6 mouse, blood	intravenous, 50 mg/kg, 10 h	–	haematocrit	35 to 45%
CC(C)[C@H](NC(=O)CNC(=O)[C@H](CCC(N)=O)NC(=O)[C@H](C)N)C(=O)O	–	human	30 mg/kg single dose	–	subjects given concomitant medication	0%
[18F]c1ccc2cc(-c3cnc(N4CCOCC4)nc3)[nH]c2c1	dynamic PET	Sprague-Dawley rat	intravenous, 120 min	–	maximum bone radioactivity	1.9 SUV
CCOP(=O)(OCC)OCCCCOC(=O)CC1=C(C)/C(=C/c2ccc([S+](C)[O-])cc2)c2ccc(F)cc21 (stereo not shown)	–	rat, muscle	oral, 50 mg/kg	–	Tmax	0.5 h
CCNc1cc2[o+]c3cc(NCC)c(C)cc3c(-c3ccccc3C(=O)OCCOCC[18F])c2cc1C	PET	rat, liver	dose not given, 5 min p.i.	–	radioactivity concentration	59 ± 2 kBq/cm³
